Results from different studies.
Protocols differ between the studies behind these lines. Values joined by “and” are separate records of one study, mostly repeats; a detail may differ.
DRD3: D(3) dopamine receptor (DRD3, Homo sapiens, UniProt P35462)
Chain of UniProt P35462 (whole entry, looked up): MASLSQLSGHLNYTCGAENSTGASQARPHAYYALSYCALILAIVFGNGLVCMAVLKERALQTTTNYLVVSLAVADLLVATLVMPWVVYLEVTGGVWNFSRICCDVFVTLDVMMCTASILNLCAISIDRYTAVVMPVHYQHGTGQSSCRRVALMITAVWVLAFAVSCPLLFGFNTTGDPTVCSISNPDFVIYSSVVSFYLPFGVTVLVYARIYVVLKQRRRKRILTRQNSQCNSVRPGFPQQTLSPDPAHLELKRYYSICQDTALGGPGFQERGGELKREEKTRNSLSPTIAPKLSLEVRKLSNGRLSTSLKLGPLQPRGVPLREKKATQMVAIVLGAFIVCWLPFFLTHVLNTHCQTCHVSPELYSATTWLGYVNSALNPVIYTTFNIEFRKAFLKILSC
CTSL: Procathepsin L (CTSL, Homo sapiens, UniProt P07711)
Chain of UniProt P07711 (whole entry, looked up): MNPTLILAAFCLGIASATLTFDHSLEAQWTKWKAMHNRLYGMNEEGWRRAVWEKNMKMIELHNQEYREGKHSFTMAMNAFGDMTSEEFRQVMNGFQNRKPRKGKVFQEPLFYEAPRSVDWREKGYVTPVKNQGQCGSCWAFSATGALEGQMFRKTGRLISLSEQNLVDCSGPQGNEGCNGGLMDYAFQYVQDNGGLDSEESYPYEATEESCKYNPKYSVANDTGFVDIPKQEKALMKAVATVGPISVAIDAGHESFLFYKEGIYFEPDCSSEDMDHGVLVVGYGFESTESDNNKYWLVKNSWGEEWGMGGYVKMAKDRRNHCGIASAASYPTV
Chain of UniProt P29597 (whole entry, looked up): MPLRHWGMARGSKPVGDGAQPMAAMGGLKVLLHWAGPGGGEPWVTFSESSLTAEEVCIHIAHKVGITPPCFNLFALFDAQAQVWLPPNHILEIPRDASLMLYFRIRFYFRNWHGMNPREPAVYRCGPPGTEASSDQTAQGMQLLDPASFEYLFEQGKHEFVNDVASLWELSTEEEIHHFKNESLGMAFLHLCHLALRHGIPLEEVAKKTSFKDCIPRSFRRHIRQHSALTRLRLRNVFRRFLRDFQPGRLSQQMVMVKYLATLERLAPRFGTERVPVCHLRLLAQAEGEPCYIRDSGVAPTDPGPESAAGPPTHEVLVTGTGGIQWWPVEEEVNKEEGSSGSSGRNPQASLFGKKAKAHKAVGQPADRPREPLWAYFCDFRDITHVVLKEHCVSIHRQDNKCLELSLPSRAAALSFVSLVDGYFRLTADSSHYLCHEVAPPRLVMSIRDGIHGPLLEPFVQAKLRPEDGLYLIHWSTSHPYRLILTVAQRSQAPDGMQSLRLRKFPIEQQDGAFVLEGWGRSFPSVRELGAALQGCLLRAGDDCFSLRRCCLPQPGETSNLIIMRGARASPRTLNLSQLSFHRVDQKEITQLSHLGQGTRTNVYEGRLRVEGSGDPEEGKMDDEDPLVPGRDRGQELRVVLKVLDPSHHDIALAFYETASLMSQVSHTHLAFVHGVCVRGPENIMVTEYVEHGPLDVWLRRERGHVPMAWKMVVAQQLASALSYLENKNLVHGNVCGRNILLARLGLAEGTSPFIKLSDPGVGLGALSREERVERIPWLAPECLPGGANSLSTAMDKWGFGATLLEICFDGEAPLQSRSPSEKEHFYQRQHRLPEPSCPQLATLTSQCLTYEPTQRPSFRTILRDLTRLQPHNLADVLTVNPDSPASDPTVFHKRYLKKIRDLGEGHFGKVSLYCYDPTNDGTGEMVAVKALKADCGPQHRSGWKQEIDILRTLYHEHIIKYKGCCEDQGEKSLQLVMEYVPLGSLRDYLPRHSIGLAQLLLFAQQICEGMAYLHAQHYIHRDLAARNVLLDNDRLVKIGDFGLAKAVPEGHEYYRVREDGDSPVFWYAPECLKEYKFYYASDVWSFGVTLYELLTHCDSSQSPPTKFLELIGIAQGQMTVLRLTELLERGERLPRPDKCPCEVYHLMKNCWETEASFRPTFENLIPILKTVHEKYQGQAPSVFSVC
Chain of UniProt P00519 (whole entry, unmodified, looked up): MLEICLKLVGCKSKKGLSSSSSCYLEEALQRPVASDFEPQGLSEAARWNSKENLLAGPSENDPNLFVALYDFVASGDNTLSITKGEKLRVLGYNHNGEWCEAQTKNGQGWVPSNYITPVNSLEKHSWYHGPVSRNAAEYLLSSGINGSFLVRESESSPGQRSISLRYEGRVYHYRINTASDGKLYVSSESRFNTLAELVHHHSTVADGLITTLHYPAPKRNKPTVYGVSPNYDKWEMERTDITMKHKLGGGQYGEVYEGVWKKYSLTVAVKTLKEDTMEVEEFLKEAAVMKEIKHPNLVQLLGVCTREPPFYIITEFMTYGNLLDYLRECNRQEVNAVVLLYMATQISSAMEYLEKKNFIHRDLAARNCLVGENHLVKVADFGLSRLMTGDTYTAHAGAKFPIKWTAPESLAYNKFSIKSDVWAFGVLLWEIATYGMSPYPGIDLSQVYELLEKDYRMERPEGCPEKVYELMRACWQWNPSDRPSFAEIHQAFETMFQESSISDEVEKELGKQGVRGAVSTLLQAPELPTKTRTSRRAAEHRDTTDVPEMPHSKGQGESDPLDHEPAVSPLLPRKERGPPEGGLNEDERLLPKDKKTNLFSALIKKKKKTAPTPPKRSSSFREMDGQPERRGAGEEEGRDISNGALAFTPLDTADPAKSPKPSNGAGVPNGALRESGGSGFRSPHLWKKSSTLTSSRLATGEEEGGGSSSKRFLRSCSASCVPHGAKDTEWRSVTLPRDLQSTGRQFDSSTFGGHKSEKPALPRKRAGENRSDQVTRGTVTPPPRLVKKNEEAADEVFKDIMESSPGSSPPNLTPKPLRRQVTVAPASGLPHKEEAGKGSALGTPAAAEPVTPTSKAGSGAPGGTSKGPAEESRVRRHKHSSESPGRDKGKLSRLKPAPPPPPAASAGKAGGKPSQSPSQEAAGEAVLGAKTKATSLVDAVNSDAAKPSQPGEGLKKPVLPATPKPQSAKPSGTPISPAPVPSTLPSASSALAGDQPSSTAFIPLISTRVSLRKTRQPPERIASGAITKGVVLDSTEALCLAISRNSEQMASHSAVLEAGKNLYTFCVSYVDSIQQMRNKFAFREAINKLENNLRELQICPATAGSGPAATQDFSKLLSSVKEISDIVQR
Chain of UniProt Q9BY41 (whole entry, looked up): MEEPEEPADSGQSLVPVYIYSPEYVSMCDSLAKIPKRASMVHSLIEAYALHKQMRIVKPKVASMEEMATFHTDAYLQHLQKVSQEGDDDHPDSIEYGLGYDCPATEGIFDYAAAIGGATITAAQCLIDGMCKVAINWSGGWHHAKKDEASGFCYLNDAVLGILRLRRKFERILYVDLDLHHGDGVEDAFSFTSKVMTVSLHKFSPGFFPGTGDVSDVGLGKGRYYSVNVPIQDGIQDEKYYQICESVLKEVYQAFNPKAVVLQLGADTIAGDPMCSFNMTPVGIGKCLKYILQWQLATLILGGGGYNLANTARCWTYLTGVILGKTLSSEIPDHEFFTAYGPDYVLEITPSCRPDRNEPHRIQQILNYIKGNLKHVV
Chain of UniProt O00444 (whole entry, looked up): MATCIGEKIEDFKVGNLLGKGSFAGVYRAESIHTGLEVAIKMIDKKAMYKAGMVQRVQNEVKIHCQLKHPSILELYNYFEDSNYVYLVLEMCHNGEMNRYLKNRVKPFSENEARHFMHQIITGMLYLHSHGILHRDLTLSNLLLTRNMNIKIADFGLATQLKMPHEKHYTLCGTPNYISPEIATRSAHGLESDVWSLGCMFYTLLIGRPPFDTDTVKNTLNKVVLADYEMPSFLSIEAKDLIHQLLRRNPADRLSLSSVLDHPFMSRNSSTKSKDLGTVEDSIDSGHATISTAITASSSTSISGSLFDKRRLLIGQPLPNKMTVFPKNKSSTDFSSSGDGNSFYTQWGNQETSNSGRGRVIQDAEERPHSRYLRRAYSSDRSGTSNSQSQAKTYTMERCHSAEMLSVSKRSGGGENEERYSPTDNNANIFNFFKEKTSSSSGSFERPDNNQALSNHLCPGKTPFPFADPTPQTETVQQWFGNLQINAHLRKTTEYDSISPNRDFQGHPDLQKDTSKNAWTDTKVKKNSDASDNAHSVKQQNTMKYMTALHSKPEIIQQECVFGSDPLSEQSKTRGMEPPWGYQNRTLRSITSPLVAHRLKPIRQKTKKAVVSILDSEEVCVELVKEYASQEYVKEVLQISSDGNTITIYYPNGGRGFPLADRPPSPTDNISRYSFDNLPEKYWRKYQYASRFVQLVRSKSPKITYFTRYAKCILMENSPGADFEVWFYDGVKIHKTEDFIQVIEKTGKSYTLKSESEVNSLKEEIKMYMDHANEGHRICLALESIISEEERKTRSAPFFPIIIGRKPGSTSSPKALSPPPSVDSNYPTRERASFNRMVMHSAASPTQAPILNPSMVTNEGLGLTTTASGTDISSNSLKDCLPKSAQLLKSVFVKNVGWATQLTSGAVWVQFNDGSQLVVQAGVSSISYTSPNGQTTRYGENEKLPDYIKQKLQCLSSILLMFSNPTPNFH
Chain of UniProt P53667 (whole entry, looked up): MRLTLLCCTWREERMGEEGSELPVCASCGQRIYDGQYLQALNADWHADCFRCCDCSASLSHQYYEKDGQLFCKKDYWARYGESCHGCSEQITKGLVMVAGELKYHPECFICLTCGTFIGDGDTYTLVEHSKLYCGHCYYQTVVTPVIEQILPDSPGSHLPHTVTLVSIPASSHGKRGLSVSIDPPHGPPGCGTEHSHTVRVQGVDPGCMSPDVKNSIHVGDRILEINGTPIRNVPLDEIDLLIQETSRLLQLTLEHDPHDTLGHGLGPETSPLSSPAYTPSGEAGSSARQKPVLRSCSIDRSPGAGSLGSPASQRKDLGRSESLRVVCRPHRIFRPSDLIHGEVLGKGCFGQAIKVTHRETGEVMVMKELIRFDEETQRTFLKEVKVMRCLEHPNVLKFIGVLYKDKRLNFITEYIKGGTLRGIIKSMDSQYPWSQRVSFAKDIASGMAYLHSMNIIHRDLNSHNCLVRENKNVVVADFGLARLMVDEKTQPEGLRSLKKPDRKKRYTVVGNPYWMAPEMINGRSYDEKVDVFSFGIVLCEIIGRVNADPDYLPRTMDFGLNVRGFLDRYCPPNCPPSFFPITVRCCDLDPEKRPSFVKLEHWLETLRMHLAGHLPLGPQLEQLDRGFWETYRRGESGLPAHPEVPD

| Structure (SMILES) | target or system | test | setting | measurement | value |
| --- | --- | --- | --- | --- | --- |
| C1=C/COCc2cc(ccc2OCCN2CCCC2)Nc2nccc(n2)-c2cccc(c2)COC/1 | EGFR (Homo sapiens, UniProt P00533, del752-759) | binding | 0.1 µM | remaining binding | 92% |
| O=c1cc(-c2ccc([N+](=O)[O-])cc2)[nH]c2c(-c3ccc(Cl)cc3)c(Cc3ccccc3)nn12 | Fibroblast growth factor 14 (Homo sapiens, UniProt Q92915) | binding, SPR | – | kon | 2050 M⁻¹ s⁻¹ |
| Cc1[nH]c(C)c(S(=O)(=O)Nc2ccc(I)c(Cl)c2)c1C(=O)N1CCC(F)(F)C1 | DRD3 | β-arrestin recruitment, agonist | 90 min | Emax | 103% |
| COc1cc(O)cc(O)c1CCC(=O)c1ccc(O)cc1 | CTSL | enzyme activity, inhibitor | 100 µM | remaining activity | 91.7% |
| Nc1ncnc2occ(-c3ccc(NC(=O)Nc4cc(C(F)(F)F)ccc4F)cc3)c12 | Tyrosine-protein kinase ABL1, non-phosphorylated (ABL1, Homo sapiens, UniProt P00519) | cell-free assay, inhibitor | 20 µM | remaining signal | 0% |
| O=c1c(O)cccc2cc(O)c(O)c(O)c12 | CTSL | enzyme activity, inhibitor | 100 µM | remaining activity | 38% |
| Cc1cc([C@@H](C)Nc2ccccc2C(=O)O)c2nc(N3CCC(F)(F)CC3)c(C#N)c(=O)n2c1 | DCLK1 (Homo sapiens, UniProt O15075) | binding, competition with immobilised ligand | 1 µM | remaining binding | 100% |
| Cc1[nH]c(C)c(S(=O)(=O)Nc2ccc(C(F)(F)F)c(Cl)c2)c1C(=O)N1CC[C@H](F)C1 | DRD3 | β-arrestin recruitment, agonist | 90 min | Emax | 87% |
| Cc1ccc(C(=O)Nc2ccc(CN3CCN(C)CC3)c(C(F)(F)F)c2)cc1C#Cc1cnc2cccnn12 | TYK2 (Homo sapiens, UniProt P29597) | enzyme activity, inhibitor | 23.5 nM | activity vs control | 80% and 58% |
| C=CC(=O)N1CCC(COCC(=O)N2CCN(c3nc(-c4cnc(N)nc4C(F)F)nc(N4CCOC[C@@H]4C)n3)CC2)CC1 | LIM domain kinase 1 (LIMK1, Homo sapiens, UniProt P53667) | binding, competition with immobilised ligand | 1 µM | remaining binding | 98% |
| Oc1cc2c(cc1O)C1c3ccc(O)c(O)c3OCC1(O)C2 (stereo not shown) | CTSL | enzyme activity, inhibitor | 100 µM | remaining activity | 90.6% |
| CC(C)c1ccc(OS(=O)(=O)Oc2cccc(C(=O)NO)c2)cc1 | HDAC6 (Homo sapiens, UniProt Q9UBN7) | enzyme activity, inhibitor, fluorescence | – | Ki | 0.626 µM |
| O=C1c2cccc(O)c2C(=O)c2c(O)cccc21 | CTSL | enzyme activity, inhibitor | 100 µM | remaining activity | 15.8% |
| Cc1cccc(N(O)N=Nc2ccc(S(=O)(=O)Nc3cc(C)on3)cc2)c1 | – | ABTS scavenging | 120 µg/mL | inhibition | 56.2% |
| CNc1ncc2c(/C=C/C(=O)N3CCC(OC)CC3)nn(Cc3cccc(C(F)(F)F)c3)c2n1 | PLK4 (Homo sapiens, UniProt O00444) | enzyme activity, inhibitor, radiometric | 1 µM | remaining activity | 82% |
| Cc1cc(NS(=O)(=O)c2ccc(N=NN(O)c3ccccc3)cc2)no1 | – | ABTS scavenging | 120 µg/mL | inhibition | 62.8% |
| CC(C)(C)c1ccc(OS(=O)(=O)Oc2cc(F)cc(C(=O)NO)c2)cc1 | HDAC8 (Homo sapiens, UniProt Q9BY41) | enzyme activity, inhibitor, fluorescence | – | Ki | 6.22 µM |
| CCCCC(=O)Nc1ccc(-c2ccc3ncn(CCC)c(=O)c3c2)cn1 | Tyrosine-protein kinase ABL1, phosphorylated (ABL1, Homo sapiens, UniProt P00519, E255K) | binding, competition with immobilised ligand | 0.5 µM | remaining binding | 93% |
| COc1cc(-c2cncc3c2CN(C)Cc2cc(N4CCNCC4)ccc2-3)cc(OC)c1OC | MARK2 (Homo sapiens, UniProt Q7KZI7) | enzyme activity, inhibitor | 1 µM | remaining activity | 118% |

Some of these lines once more:
| Structure (SMILES) | target or system | test | setting | measurement | value |
| --- | --- | --- | --- | --- | --- |
| C1=C/COCc2cc(ccc2OCCN2CCCC2)Nc2nccc(n2)-c2cccc(c2)COC/1 | EGFR (Homo sapiens, UniProt P00533, del752-759) | binding | 0.1 µM | remaining binding | 92% |
| COc1cc(-c2cncc3c2CN(C)Cc2cc(N4CCNCC4)ccc2-3)cc(OC)c1OC | MARK2 (Homo sapiens, UniProt Q7KZI7) | enzyme activity, inhibitor | 1 µM | remaining activity | 118% |
| Cc1cccc(N(O)N=Nc2ccc(S(=O)(=O)Nc3cc(C)on3)cc2)c1 | – | ABTS scavenging | 120 µg/mL | inhibition | 56.2% |
